Experimental data of several laboratories.
A part holds a random share of what one study measured.

Block 1 — method: EMSA with sequencing; form: double-stranded DNA, one strand shown; medium: in vitro; tested at: 10 and 20 nM; relative to: negative control set to 0; direction: higher = stronger binding; endpoint: normalised bound fraction
Target: Hepatocyte nuclear factor 3-alpha (Foxa1, Mus musculus, UniProt P35582, residues 1-468, full length assumed)
Setting: whole designed probe, mean of two concentrations, ends assumed
Shared flanks, not repeated: GTGAGCGGTGCCCATTGATGGGGAAC … TTTCACTGGGATCGTGGGGAC
Construct (chain): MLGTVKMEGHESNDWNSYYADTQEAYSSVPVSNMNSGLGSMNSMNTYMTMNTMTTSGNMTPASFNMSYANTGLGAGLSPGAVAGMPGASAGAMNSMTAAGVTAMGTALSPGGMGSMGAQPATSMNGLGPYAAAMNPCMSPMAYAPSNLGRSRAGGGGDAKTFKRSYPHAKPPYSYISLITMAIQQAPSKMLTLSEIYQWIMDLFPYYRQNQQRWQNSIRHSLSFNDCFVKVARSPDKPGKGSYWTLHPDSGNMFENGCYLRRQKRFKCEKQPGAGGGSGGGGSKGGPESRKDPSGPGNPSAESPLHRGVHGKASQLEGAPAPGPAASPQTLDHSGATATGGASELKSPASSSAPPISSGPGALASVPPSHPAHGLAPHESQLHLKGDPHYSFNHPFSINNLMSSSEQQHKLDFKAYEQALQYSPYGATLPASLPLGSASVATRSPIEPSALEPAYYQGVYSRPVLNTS
Oligonucleotide = AGTTGCAGTCCAGGAAAAAGAAGGCACAAACACTGCTGATCAAATATTACTAAAGCTTTTATGGACTCTTGAACCTCATTTTCCCTCCCATATGTACACAAGACACACTTCATTCTTACTCTGTTTATGCCTCTCTGTCTAATAGAAACTTCACTTCTGACTCCAGCTTTGTCTAATTATTAACACAGAGAGG; value = 0.282 ratio
Oligonucleotide = TGATGATACGTTATAGCATTTCTCTGCTCTGTAAGAGAGGCACCAGGGTCGTGTGCTGGGTCTGGGGTTTGTCCATTCCACAACGGGTGCTGCTGTTGACTCTGGTGTCGGCCGCTGGTGAGCTGGCTGTAGCTGGTCACCTCTGGGTGGTTTCTGGGGCGGTCGCAGGCTGACTAACACACCAAAGGTCAGC; value = -0.00479 ratio
Oligonucleotide = ATCTTCCCCCTCTTCCTTGCCCCACCAGCTCACCTACGGGGGTTATTTGCAGATAGGAAAATAAATAAAGCCGGCATTCGTTAACCCTCTTCACGCGCATACTGCTGTTTGCTCTGCATCTAACATGGTCCTTACGCGACGCCAGGCTCCGGGAGAGCAAAGCACCGTGTCAGGCGCATGATCCGGGGTGGCC; value = 0.36 ratio
Oligonucleotide = ATCTTCCCCCTCTTCCTTGCCCCACCAGCTCACCTTCCCGGGTTATTTGCAGATAGGAAAATAAATAAAGCCGGCATTCGTTAACGCAGTTCACGCGCATACTGCTGTTTGCTCTGGATGAATCATGGTCCTTTGGCGACGCCAGGCTCCGGGAGAGCAAAGCACCGTGTCAGGGCCATGATCCGGGGTGGCC; value = 0.346 ratio
Oligonucleotide = ACTCTGTAATTTTACACACGTGAAATTTCTCTGTTTCAAAAATAATAATACCAAGCATCTATAGGAGAGTAAATTGATACCAACATCAAAATGTAATCTTGGAAGGTAAGAGAATTTTATAAGATCTGCTTTTTACACTTTCTTTTTCATATTCTATAAAAAGAGTACAACATAAGCAAAATGGTTGTCTAAA; value = -0.058 ratio

Block 2 — method: protein binding microarray; form: double-stranded DNA, one strand shown; medium: in vitro; tested at: not given; relative to: not given; direction: higher = stronger binding; endpoint: E-score
Target: Histone acetyltransferase KAT6A, winged helix 2, GST fusion (KAT6A, Homo sapiens, UniProt Q92794, residues 85-181)
Setting: 8-mer, flanks averaged, mean of 2 arrays, mostly near background
Residues (chain): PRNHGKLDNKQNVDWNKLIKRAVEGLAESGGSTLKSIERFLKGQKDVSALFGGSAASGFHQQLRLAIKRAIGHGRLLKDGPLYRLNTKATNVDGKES
Oligonucleotide = ATACGTGA; value = -0.22
Oligonucleotide = TAATGATA; value = 0.0806
Oligonucleotide = CATCCTCC; value = -0.129
Oligonucleotide = ATCGATCC; value = -0.24
Oligonucleotide = ACCTCGAA; value = 0.108
Oligonucleotide = TAGTACAA; value = -0.0679
Oligonucleotide = CCAAACGG; value = 0.024
Oligonucleotide = ACGATTTC; value = -0.058
Oligonucleotide = GGATTACC; value = -0.0815
Oligonucleotide = GGCAAAAC; value = 0.0575
Oligonucleotide = ACTCTTCA; value = -0.073
Oligonucleotide = GGGGAGTA; value = 0.107
Oligonucleotide = GGTGTGCA; value = -0.112
Oligonucleotide = ACGGGATG; value = -0.17
Oligonucleotide = CGGTTTGA; value = 0.0488
Oligonucleotide = CAGACCCG; value = 0.151
Oligonucleotide = AACGCGGA; value = 0.0206
Oligonucleotide = AACCAGCT; value = 0.156
Oligonucleotide = AAAGGACG; value = -0.0855

Block 3 — method: protein-binding microarray; form: hairpin DNA; medium: in vitro; tested at: not given; relative to: not given; direction: higher = stronger binding; endpoint: median fluorescence
Target: Runt-related transcription factor 3, Runt domain (RUNX3, Homo sapiens, UniProt Q13761, residues 53-186)
Chain of UniProt Q13761 (53-186, looked up): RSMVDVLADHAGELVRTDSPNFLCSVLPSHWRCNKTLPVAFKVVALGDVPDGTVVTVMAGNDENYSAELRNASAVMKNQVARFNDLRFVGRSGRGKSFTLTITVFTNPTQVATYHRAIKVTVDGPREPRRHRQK
Setting: whole hairpin DNA, median over replicate spots
Oligonucleotide = GAGGCCCAACCGCAGCAGCCTCCTGGCTGCTGCGGTTGGGCCTCACACTC (5mC at 30); value = 8120 a.u.
Oligonucleotide = CTCAGTTCTGTGGGCTAGACTCCTGTCTAGCCCACAGAACTGAGACACTC; value = 4060 a.u.
Oligonucleotide = GAGGCCCAACCCCAACAGCCTCCTGGCTGTTGGGGTTGGGCCTCACACTC; value = 5020 a.u.
Oligonucleotide = CTCAGTTCTGGGGGCTGGACTCCTGTCCAGCCCCCAGAACTGAGACACTC; value = 4060 a.u.
Oligonucleotide = CTCAGTTCTGTGGCCTGGACTCCTGTCCAGGCCACAGAACTGAGACACTC (5mC at 14); value = 4510 a.u.
Oligonucleotide = GAGGCCCAACCTCAACAGCCTCCTGGCTGTTGAGGTTGGGCCTCACACTC; value = 4690 a.u.
Oligonucleotide = GAGGCCTGTCGCGGCTGGCCTCCTGGCCAGCCGCGACAGGCCTCACACTC (5mC at 15); value = 5470 a.u.
Oligonucleotide = GAGGCCTGTCGCGGTCGGCCTCCTGGCCGACCGCGACAGGCCTCACACTC (5mC at 28); value = 6030 a.u.
Oligonucleotide = GAGGCCTGTTGCGCGTGGCCTCCTGGCCACGCGCAACAGGCCTCACACTC (5mC at 14); value = 5150 a.u.
Oligonucleotide = GAGGCCTGTTGCGGCGGGCCTCCTGGCCCGCCGCAACAGGCCTCACACTC (5mC at 15); value = 6040 a.u.
Oligonucleotide = CTCAGTTCCGTGGGCTGGACTCCTGTCCAGCCCACGGAACTGAGACACTC (5mC at 9); value = 4580 a.u.
Oligonucleotide = GAGGCCTGTTGCGCTTGGCCTCCTGGCCAAGCGCAACAGGCCTCACACTC; value = 4750 a.u.
Oligonucleotide = GAGGCCCAACCGCAACAGCCTCCTGGCTGTTGCGGTTGGGCCTCACACTC (5mC at 11 33); value = 5430 a.u.
Oligonucleotide = GAGGCCTGTTGCGGTGGGCCTCCTGGCCCACCGCAACAGGCCTCACACTC (5mC at 29); value = 6080 a.u.
Oligonucleotide = GAGGCCCAACCGGAACAGCCTCCTGGCTGTTCCGGTTGGGCCTCACACTC; value = 4940 a.u.
Oligonucleotide = GAGGCCTGTCGCGCGTGGCCTCCTGGCCACGCGCGACAGGCCTCACACTC; value = 5380 a.u.
Oligonucleotide = CTCAGTTCTCGGGGCTGGACTCCTGTCCAGCCCCGAGAACTGAGACACTC (5mC at 10); value = 4440 a.u.
Oligonucleotide = GAGGCCTGTCGCGGTTGGCCTCCTGGCCAACCGCGACAGGCCTCACACTC (5mC at 44); value = 6870 a.u.
Oligonucleotide = GAGGCCCAACCCGAACAGCCTCCTGGCTGTTCGGGTTGGGCCTCACACTC (5mC at 12); value = 4620 a.u.

Block 4 — method: protein-binding microarray; form: double-stranded DNA, one strand shown; medium: in vitro; tested at: 940 nM top; setting: 60-bp whole probe; with: salmon DNA 0.4 mg/ml; relative to: random background probes; direction: higher = stronger binding; endpoint: fitted relative affinity; shared flanks, not repeated: GCCTAGCAC … GTCTTGATTCGCTTGACGCTGCTG
Target: Interferon regulatory factor 5, full length, phosphomimetic (IRF5, Homo sapiens, UniProt Q13568-2, residues 1-514, S451D/S453D/S456D/S462D)
Oligonucleotide = GACGGTTTCGACTACCGGGACGTGCTA; value = 8.8 z-score
Oligonucleotide = GAATATATGTATATATGTGTGTGCTAG; value = -0.27 z-score
Oligonucleotide = GACGGAATCCTTATCCTGACGTGCTAG; value = 0.0594 z-score
Oligonucleotide = GACGTTTTCGGTATCGGGACGTGCTAG; value = 4.81 z-score
Oligonucleotide = TTAGGACTGGACTTTCGGTAAGTGCTA; value = 1.7 z-score
Oligonucleotide = TTAGGACTGGTTATCGGTTAGTGCTAG; value = 0.203 z-score
Oligonucleotide = TCAGAAATCAGTATGTTACTGTGCTAG; value = -0.639 z-score
Oligonucleotide = TTAGGTCTCCTAGTGCTTTAGTGCTAG; value = -0.404 z-score
Oligonucleotide = TCATTTTTCATCATTGCACTGTGCTAG; value = 1.08 z-score
Oligonucleotide = TTAGGACTGCCTCTCCTTTAGTGCTAG; value = -0.265 z-score
Oligonucleotide = TCATCGATTTCTCTTTCCACTGTGCTA; value = 1.38 z-score
Oligonucleotide = TCAGAGCTCTGTCTGGGACTGTGCTAG; value = -0.439 z-score
Oligonucleotide = GACGGTTTCGGGTTTTGGGACGTGCTA; value = 7.97 z-score
Oligonucleotide = TTAGAACTGGGGACTGGACTAGTGCTA; value = -0.283 z-score
Oligonucleotide = TTAGGACTCGGGTTTCGGTTAGTGCTA; value = 5.47 z-score
Oligonucleotide = TTAGGTATCGGTTTAGGTTAGTGCTAG; value = 10.6 z-score
Oligonucleotide = TTAGGTTTCCATTCCCTTTAGTGCTAG; value = 2.4 z-score
Oligonucleotide = TCAGTTTTGTGTGTGTGACTGTGCTAG; value = 0.772 z-score
Oligonucleotide = GACGCTTTCGGGACTGGGGACGTGCTA; value = 1.96 z-score

A few entries again (block 4):
Oligonucleotide = GACGGAATCCTTATCCTGACGTGCTAG; value = 0.0594 z-score
Oligonucleotide = GACGTTTTCGGTATCGGGACGTGCTAG; value = 4.81 z-score
Oligonucleotide = TTAGGACTGGACTTTCGGTAAGTGCTA; value = 1.7 z-score
Oligonucleotide = TTAGGACTGGTTATCGGTTAGTGCTAG; value = 0.203 z-score
Oligonucleotide = TCAGAAATCAGTATGTTACTGTGCTAG; value = -0.639 z-score
Oligonucleotide = TTAGGTCTCCTAGTGCTTTAGTGCTAG; value = -0.404 z-score
